Assay results from different studies.
Numbers after ± are the reported error.
AR: Androgen receptor (AR, Homo sapiens, UniProt P10275)
Chain of UniProt P10275 (whole entry, unmodified, looked up): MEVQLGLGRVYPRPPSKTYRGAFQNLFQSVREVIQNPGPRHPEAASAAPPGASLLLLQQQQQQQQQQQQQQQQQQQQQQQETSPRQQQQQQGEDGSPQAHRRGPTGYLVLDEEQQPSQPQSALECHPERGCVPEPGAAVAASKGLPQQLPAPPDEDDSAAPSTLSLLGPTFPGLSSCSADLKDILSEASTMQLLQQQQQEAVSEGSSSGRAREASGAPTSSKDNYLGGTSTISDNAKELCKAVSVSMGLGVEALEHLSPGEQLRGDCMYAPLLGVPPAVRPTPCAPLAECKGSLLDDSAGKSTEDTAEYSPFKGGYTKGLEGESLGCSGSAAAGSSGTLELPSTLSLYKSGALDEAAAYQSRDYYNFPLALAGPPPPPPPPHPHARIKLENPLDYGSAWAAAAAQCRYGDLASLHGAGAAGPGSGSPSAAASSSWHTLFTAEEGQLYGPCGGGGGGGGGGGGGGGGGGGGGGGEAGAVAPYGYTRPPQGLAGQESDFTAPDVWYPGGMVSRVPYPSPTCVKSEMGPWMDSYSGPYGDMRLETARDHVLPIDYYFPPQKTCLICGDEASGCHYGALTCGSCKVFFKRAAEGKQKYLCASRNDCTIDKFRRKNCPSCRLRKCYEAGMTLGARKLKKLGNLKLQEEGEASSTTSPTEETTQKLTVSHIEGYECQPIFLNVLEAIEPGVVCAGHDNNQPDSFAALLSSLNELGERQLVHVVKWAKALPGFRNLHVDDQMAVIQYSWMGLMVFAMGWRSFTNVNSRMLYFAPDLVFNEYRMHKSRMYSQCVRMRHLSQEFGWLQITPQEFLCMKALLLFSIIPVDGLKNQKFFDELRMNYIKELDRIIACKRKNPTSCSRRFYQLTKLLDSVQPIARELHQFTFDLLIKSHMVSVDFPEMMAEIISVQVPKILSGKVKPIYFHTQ

| SMILES | target | test | test system | setting | measurement | result |
| --- | --- | --- | --- | --- | --- | --- |
| Clc1ccc(COC(Cn2ccnc2)c2ccc(Cl)cc2Cl)c(Cl)c1 (stereo not drawn) | AR | – | human cells | – | IC50 | 1.22 µM |
| O=C1NC(=O)c2cc(Nc3ccccc3)c(Nc3ccccc3)cc21 | Androgen receptor (AR, Homo sapiens, UniProt P10275, Q868H) | antagonist | – | together with: R1881 2 nM | IC50 | 19.3 ± 4.42 µM |
| C[C@H](CCC(=O)O)[C@H]1CC[C@H]2[C@@H]3CC=C4CC(=O)CC[C@]4(C)[C@H]3CC[C@]12C | AR | reporter gene, antagonist, luciferase reporter | cells expressing human AR | together with: 45 pM agonist | IC50 | 0.119 µM |
| CC1(C(F)F)NC(=O)N(c2ccc(F)c(C(F)(F)F)c2)C1=O (stereo not drawn) | AR | reporter gene, antagonist | LAPC4 | 24 h, together with: DHT 10 nM | IC50 | 4.2 µM |
| C[C@]12CC[C@@H]3c4ccc(O)cc4C[C@@H](CCCCCCCCC[S+]([O-])CCCC(F)(F)C(F)(F)F)[C@H]3[C@@H]1CC[C@@H]2O (stereo partly drawn) | AR | antagonist, cell-based | – | – | IC50 | > 10 µM |
| CC1(C)NC(=O)N(c2ccc(F)c(F)c2)C1=O | AR | reporter gene, antagonist | LAPC4 | 24 h, together with: DHT 10 nM | IC50 | 8.3 µM |
| CCCCCCOC(=O)c1ccccc1C(=O)c1ccc(N(CC)CC)cc1O | AR | reporter gene, agonist | – | – | EC50 | > 100 µM |
| CC1(C(F)(F)F)NC(=O)N(c2ccc(F)c(C(F)(F)F)c2)C1=O (stereo not drawn) | AR | reporter gene, antagonist | LAPC4 | 24 h, together with: DHT 10 nM | IC50 | 5.2 µM |
| CC(=O)N1CCN(CCOc2ccc(C3CCN(C4=Nn5c(nnc5C(F)(F)F)CC4)CC3)cc2)CC1 | AR | antagonist, nuclear translocation | – | primary screen, top 100 µM | IC50 | 10.9 µM |
